{"data": "Measured values pooled from the literature", "B1": "protein 16-92 (Mycobacterium tuberculosis, UniProt P96276); chain EVADGLTRREHDILAFERQWWKFAGVKEEAIKELFSMSATRYYQVLNALVDRPEALAADPMLVKRLRRLRASRQKAR", "B2": "aba3 60-440 (Botrytis cinerea, UniProt A0A384JQC9); sequence looked up; chain KEHQDTWYYPPDIANDLQSINLPAELKGEIFACAWEYTRCVIPNYTNWNRYVAFMRIIIMGIIAEFRGEMVDVTASNNLLGYDLDATLAALFEGTPGHKEMAREYKTFLLITADKASERRDGELFRRYVNALAQSPRHWFRMRDCDALARFTIASALACNDLDDIWFTEDQFEILTEIGDTLYDAVAFYKHRAEGETNSTFAYMPEDLRIKAYSECREILWALDAAWARNPKLANVINFVRFFGGPIHMMMRRYRFVEENLTIGKSETDKVVDQTRKNFKLWNRVDANKRSVLNTQRYKALIARSEELMFPGLAEFLEMGGDGICDKCKYRESYGAELSHQFGGVELCSECRLSWRKYLECFVERATKVFPELKTHFEVPV", "note": "Protocols differ between the studies behind these lines. ± gives the spread as reported."}
{"Substance": "FolB (Mycobacterium tuberculosis, UniProt P9WNC5)", "tested on": "Nc1nc2c(c(=O)[nH]1)N=C([C@H](O)[C@@H](O)CO)CN2", "test": "steady-state kinetics", "conditions": "pH 7, 25 °C", "quantity": "Km", "value": "0.154 µM"}
{"Substance": "protein (Vibrio cholerae, UniProt A0A060KT36)", "tested on": "itself", "test": "cryo-EM", "quantity": "subunits per oligomer", "value": 4}
{"Substance": "B1 (protein 16-92)", "tested on": "itself", "test": "crystal structure", "quantity": "subunits per oligomer", "value": 4}
{"Substance": "CA C-terminal domain (HIV-1)", "test": "NMR, measured: Glu175", "conditions": "7 °C, sodium phosphate 25 mM, numbering of the source", "quantity": "pKa", "value": 4.37}
{"Substance": "FVSGNCDVVIGIVNN", "tested on": "human CD4 T cells", "test": "AIM", "system": "peptide", "quantity": "responding donors", "value": "7%"}
{"Substance": "CC[C@H](C)[C@H](NC(=O)[C@H](CC(C)C)NC(=O)[C@H](CO)NC(=O)[C@H](Cc1c[nH]cn1)NC(=O)[C@@H](NC(=O)[C@H](CC(C)C)NC(=O)[C@H](CO)NC(=O)[C@@H](NC(=O)[C@H](Cc1ccc(O)cc1)NC(=O)[C@H](CC(N)=O)NC(=O)[C@H](CC(N)=O)NC(=O)[C@@H](NC(=O)[C@H](CCC(=O)O)NC(=O)[C@H](CCCNC(=N)N)NC(=O)[C@H](CC(=O)O)NC(=O)[C@H](Cc1c[nH]c2ccccc12)NC(=O)[C@H](CCC(=O)O)NC(=O)[C@H](CCSC)NC(=O)[C@H](Cc1c[nH]c2ccccc12)NC(C)=O)[C@@H](C)CC)[C@@H](C)O)[C@@H](C)CC)C(=O)N[C@@H](CCC(=O)O)C(=O)N[C@@H](CCC(=O)O)C(=O)N[C@@H](CO)C(=O)N[C@@H](CCC(N)=O)C(=O)N[C@@H](CC(N)=O)C(=O)N[C@@H](CCC(N)=O)C(=O)N[C@@H](CCC(N)=O)C(=O)N[C@@H](CCC(=O)O)C(=O)N[C@@H](CCCCN)C(=O)N[C@@H](CC(N)=O)C(=O)N[C@@H](CCC(=O)O)C(=O)N[C@@H](CCC(N)=O)C(=O)N[C@@H](CCC(=O)O)C(=O)N[C@@H](CC(C)C)C(=O)N[C@@H](CC(C)C)C(=O)NCC(=O)N[C@@H](CO)C(=O)NCC(=O)N[C@@H](CSCC(=O)O[C@H]1CC[C@@]2(C)C(=CC[C@H]3[C@@H]4CC[C@H]([C@H](C)CCCC(C)(C)O)[C@@]4(C)CC[C@@H]32)C1)C(N)=O", "test": "Trp fluorescence", "system": "HIV-like lipid mixture vesicles", "conditions": "5 µM, pH 7.4, 25 °C", "quantity": "partition coefficient", "value": "1240 ± 297"}
{"Substance": "TLRVEAFEYYHTTDP", "tested on": "human CD4 T cells", "test": "AIM", "system": "peptide", "quantity": "responding donors", "value": "18%"}
{"Substance": "p2o (Trametes ochracea, UniProt Q7ZA32)", "tested on": "Nc1ccc2nc3ccc(N)cc3[s+]c2c1", "test": "steady-state kinetics", "conditions": "pH 6.5, 22 °C, apparent", "quantity": "kcat/Km", "value": "24000 M⁻¹ s⁻¹"}
{"Substance": "B2 (aba3 60-440)", "tested on": "itself", "test": "SEC", "quantity": "subunits per oligomer", "value": 2}
{"Substance": "cysH (Mycobacterium tuberculosis, UniProt P9WIK3)", "tested on": "Nc1ncnc2c1ncn2[C@@H]1O[C@H](COP(=O)(O)OS(=O)(=O)O)[C@@H](O)[C@H]1O", "test": "steady-state kinetics", "conditions": "pH 7.5", "quantity": "kcat", "value": "0.13 ± 0.00667 s⁻¹"}
{"Substance": "PaFS D92A (Diaporthe amygdali)", "tested on": "CC(C)=CCC/C(C)=C/CC/C(C)=C/CO[P@@](=O)(O)OP(=O)(O)O", "test": "steady-state kinetics", "quantity": "Km", "value": "1.9 µM"}
{"note": "Some of these lines once more:"}
{"Substance": "CC[C@H](C)[C@H](NC(=O)[C@H](CC(C)C)NC(=O)[C@H](CO)NC(=O)[C@H](Cc1c[nH]cn1)NC(=O)[C@@H](NC(=O)[C@H](CC(C)C)NC(=O)[C@H](CO)NC(=O)[C@@H](NC(=O)[C@H](Cc1ccc(O)cc1)NC(=O)[C@H](CC(N)=O)NC(=O)[C@H](CC(N)=O)NC(=O)[C@@H](NC(=O)[C@H](CCC(=O)O)NC(=O)[C@H](CCCNC(=N)N)NC(=O)[C@H](CC(=O)O)NC(=O)[C@H](Cc1c[nH]c2ccccc12)NC(=O)[C@H](CCC(=O)O)NC(=O)[C@H](CCSC)NC(=O)[C@H](Cc1c[nH]c2ccccc12)NC(C)=O)[C@@H](C)CC)[C@@H](C)O)[C@@H](C)CC)C(=O)N[C@@H](CCC(=O)O)C(=O)N[C@@H](CCC(=O)O)C(=O)N[C@@H](CO)C(=O)N[C@@H](CCC(N)=O)C(=O)N[C@@H](CC(N)=O)C(=O)N[C@@H](CCC(N)=O)C(=O)N[C@@H](CCC(N)=O)C(=O)N[C@@H](CCC(=O)O)C(=O)N[C@@H](CCCCN)C(=O)N[C@@H](CC(N)=O)C(=O)N[C@@H](CCC(=O)O)C(=O)N[C@@H](CCC(N)=O)C(=O)N[C@@H](CCC(=O)O)C(=O)N[C@@H](CC(C)C)C(=O)N[C@@H](CC(C)C)C(=O)NCC(=O)N[C@@H](CO)C(=O)NCC(=O)N[C@@H](CSCC(=O)O[C@H]1CC[C@@]2(C)C(=CC[C@H]3[C@@H]4CC[C@H]([C@H](C)CCCC(C)(C)O)[C@@]4(C)CC[C@@H]32)C1)C(N)=O", "test": "Trp fluorescence", "system": "HIV-like lipid mixture vesicles", "conditions": "5 µM, pH 7.4, 25 °C", "quantity": "partition coefficient", "value": "1240 ± 297"}
